Measurements gathered from unrelated publications.
Lines come from different studies, so protocols differ. Values joined by “and” are separate records of one study, mostly repeats; a detail may differ. Numbers after ± are the reported error.
HTR5A: 5-hydroxytryptamine receptor 5A (HTR5A, Homo sapiens, UniProt P47898)
Chain of UniProt P47898 (whole entry, looked up): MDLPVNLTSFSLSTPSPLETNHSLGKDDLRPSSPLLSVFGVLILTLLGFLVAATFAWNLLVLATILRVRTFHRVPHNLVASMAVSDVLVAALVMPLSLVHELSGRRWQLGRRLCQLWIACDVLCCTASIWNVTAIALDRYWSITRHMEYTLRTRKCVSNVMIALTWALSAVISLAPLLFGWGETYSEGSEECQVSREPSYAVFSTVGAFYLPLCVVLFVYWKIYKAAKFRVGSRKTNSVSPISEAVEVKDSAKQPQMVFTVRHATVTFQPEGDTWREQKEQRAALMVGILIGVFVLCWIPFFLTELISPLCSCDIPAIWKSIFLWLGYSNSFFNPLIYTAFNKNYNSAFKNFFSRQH
HDAC11: Histone deacetylase 11 (HDAC11, Homo sapiens, UniProt Q96DB2)
Chain of UniProt Q96DB2 (whole entry, looked up): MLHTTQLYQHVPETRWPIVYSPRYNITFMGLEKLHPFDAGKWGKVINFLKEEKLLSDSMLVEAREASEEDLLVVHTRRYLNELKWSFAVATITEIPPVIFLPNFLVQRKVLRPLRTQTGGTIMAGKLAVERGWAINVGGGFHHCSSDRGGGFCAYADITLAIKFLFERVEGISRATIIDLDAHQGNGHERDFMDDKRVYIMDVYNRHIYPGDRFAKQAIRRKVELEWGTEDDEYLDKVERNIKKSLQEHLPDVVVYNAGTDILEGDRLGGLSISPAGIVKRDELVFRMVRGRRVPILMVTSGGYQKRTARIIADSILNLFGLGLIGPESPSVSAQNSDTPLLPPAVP
AMY2: Pancreatic alpha-amylase (AMY2, Sus scrofa, UniProt P00690)
Chain of UniProt P00690 (whole entry, looked up): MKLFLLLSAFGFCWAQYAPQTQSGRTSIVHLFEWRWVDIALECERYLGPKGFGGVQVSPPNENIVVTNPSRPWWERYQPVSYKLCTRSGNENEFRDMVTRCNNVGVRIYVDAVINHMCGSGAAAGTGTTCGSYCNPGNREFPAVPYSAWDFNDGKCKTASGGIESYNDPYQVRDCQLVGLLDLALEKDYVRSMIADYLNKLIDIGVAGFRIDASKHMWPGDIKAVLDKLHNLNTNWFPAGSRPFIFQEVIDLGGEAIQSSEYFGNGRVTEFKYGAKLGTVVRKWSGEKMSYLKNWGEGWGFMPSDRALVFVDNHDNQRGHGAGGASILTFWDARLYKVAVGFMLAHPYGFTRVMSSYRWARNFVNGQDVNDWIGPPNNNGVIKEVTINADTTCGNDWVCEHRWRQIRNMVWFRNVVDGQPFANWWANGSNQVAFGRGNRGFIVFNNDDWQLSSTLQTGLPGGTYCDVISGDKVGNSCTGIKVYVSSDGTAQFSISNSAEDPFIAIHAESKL
HTR2B: 5-hydroxytryptamine receptor 2B (HTR2B, Homo sapiens, UniProt P41595)
Chain of UniProt P41595 (whole entry, looked up): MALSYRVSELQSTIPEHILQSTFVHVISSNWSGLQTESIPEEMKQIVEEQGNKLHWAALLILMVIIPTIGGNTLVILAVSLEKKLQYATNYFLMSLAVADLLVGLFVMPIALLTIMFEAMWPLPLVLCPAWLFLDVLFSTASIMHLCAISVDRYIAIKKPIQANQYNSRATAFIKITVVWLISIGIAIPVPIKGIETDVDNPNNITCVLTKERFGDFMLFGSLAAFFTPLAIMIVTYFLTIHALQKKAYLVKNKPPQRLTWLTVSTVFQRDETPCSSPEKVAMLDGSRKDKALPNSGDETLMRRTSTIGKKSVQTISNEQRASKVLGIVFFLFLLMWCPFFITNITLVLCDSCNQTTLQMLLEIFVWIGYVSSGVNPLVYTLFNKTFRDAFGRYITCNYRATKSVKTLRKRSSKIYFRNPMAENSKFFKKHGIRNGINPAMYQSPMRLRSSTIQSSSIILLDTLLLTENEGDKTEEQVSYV
ADRA1A: Alpha-1A adrenergic receptor (ADRA1A, Homo sapiens, UniProt P35348)
Chain of UniProt P22001 (whole entry, looked up): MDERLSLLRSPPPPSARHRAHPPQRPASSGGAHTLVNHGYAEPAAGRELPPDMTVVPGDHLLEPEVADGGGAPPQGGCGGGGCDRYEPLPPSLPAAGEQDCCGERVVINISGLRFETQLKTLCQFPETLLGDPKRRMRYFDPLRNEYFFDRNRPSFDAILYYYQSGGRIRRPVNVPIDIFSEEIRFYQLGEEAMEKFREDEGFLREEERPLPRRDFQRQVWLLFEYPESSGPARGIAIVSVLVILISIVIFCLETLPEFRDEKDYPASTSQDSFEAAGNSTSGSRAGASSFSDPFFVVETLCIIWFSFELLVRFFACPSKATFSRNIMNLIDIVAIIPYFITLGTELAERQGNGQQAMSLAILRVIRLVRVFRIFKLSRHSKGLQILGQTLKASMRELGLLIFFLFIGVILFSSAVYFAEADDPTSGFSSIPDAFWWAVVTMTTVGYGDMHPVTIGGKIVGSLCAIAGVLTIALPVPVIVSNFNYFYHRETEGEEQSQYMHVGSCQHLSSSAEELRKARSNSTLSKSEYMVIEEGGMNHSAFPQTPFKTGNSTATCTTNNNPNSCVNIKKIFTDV
Chain of UniProt Q13946 (whole entry, looked up): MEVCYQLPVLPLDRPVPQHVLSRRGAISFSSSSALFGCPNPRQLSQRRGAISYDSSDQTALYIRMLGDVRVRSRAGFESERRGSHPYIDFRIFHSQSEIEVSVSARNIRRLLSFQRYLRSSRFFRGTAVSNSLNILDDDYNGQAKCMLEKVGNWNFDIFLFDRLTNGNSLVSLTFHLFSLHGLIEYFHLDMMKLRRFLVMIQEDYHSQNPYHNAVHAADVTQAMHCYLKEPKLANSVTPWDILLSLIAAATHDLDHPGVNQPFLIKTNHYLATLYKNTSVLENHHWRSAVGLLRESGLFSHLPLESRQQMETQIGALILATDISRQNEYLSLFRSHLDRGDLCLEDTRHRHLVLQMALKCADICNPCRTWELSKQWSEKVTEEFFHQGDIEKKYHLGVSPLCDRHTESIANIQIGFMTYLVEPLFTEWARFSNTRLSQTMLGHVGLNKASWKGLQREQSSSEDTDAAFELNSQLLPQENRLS
Chain of UniProt P35348 (whole entry, looked up): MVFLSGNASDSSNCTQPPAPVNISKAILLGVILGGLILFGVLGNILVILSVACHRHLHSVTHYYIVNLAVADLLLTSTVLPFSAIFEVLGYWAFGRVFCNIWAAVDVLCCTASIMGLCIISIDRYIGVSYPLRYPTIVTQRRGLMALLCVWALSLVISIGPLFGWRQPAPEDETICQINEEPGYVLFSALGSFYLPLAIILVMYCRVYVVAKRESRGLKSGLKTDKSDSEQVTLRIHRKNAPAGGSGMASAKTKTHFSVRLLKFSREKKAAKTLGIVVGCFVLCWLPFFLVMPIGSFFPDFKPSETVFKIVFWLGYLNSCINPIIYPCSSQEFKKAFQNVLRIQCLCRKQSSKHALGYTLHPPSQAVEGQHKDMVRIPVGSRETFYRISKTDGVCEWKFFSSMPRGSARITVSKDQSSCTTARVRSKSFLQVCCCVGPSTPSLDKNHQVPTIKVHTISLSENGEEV
Chain of UniProt Q93009 (whole entry, unmodified, looked up): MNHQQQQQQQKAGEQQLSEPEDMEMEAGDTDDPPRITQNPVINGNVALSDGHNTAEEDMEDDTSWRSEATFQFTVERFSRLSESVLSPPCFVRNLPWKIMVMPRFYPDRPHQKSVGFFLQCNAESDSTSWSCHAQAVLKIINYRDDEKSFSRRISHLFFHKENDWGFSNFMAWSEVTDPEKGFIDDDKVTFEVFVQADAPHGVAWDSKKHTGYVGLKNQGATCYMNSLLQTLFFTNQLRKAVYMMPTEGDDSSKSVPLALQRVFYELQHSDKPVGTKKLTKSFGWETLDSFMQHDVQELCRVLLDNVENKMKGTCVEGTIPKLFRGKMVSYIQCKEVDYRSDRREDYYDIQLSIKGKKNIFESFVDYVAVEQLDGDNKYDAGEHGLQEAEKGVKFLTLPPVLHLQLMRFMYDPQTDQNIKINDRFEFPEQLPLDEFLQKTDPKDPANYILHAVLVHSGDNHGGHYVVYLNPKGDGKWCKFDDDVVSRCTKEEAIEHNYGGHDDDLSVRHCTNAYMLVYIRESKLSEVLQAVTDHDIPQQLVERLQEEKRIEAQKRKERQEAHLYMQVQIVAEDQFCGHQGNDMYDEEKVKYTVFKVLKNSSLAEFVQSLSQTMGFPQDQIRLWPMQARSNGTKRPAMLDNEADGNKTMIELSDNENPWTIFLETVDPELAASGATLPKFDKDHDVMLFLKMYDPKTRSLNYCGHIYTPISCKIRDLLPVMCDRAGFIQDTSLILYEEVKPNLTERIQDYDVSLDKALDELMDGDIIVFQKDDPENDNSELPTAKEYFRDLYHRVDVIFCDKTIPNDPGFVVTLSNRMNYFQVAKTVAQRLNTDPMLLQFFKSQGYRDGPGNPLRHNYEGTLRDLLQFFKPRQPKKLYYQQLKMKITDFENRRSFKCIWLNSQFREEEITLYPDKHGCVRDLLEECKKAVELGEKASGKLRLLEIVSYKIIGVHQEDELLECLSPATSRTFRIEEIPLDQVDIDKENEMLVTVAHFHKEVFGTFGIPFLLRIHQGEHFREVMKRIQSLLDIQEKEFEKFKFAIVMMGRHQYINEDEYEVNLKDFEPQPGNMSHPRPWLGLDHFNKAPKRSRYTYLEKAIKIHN
Chain of UniProt P36896 (whole entry, looked up): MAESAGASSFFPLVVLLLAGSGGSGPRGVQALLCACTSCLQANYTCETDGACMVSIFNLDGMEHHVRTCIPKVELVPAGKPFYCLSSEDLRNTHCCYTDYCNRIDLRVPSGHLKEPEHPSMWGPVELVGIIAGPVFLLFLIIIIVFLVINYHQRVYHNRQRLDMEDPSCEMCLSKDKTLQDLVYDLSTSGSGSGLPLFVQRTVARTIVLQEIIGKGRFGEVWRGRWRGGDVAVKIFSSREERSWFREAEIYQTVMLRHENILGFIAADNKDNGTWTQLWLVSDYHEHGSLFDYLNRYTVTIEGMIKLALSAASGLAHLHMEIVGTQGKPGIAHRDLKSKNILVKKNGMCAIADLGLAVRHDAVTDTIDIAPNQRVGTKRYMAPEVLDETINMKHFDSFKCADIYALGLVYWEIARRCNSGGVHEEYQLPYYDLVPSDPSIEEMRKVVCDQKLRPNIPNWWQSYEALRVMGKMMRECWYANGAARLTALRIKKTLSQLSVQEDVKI

COc1cc2c(cc1OC)C(=O)N(CCCCN1CCN(c3ccccc3OC)CC1)C2 — inhibition (HTR5A; radioligand binding; concentration not given, with: [3H]LSD): 61.4%
O=C(NO)c1cc(F)cc(OS(=O)(=O)Oc2ccccc2)c1 — inhibition (HDAC11; 10 µM): 30%
O=C(CN1CCO[C@@H](COc2cccnc2)C1)N1CCc2ccccc21 — inhibition (HTR5A; radioligand binding; concentration not given, with: [3H]LSD): 25.8%
CC[C@@H]1[C@H](F)C(=O)N[C@@H]1COc1nccc2cc(C(N)=O)c(OC)cc12 — inhibition (PRPF4B (Homo sapiens, UniProt Q13523); ATP-site probe binding, ActivX profiling; THP-1 cell lysate; 0.01 mM, Lys2 site): 15.8%
Cc1ccnc(OC[C@H]2CN(CC(=O)N3CCc4ccccc43)CCO2)c1 — inhibition (DRD4 (Homo sapiens, UniProt P21917); radioligand binding; concentration not given, with: [3H]N-methylspiperone): 44.1%
CCN(Cc1ccccc1C(F)(F)F)C(=O)C1CCN(S(=O)(=O)c2ccc3[nH]ncc3c2)CC1 — inhibition (rat P2Y receptor; radioligand binding; 10 µM): 4%
COc1ccc(-c2cc(-c3ccc4oc(=O)cc(C)c4c3O)nc(N)n2)cc1 — inhibition (AMY2; enzyme activity, inhibitor; concentration not given): 73.9 ± 1.24%
O=C(Nc1cccc2c(=O)cc(-c3nnn[nH]3)oc12)c1ccc(OCCCCc2ccccc2)cc1 — inhibition (Volume-regulated anion channel subunit LRRC8C, part LRRC8A IL1 chimera (LRRC8C, Homo sapiens, UniProt Q8TDW0, L136K); ion current, inhibitor, whole-cell patch clamp; HCT LRRC8-/- cells; 1 µM, +100 mV): 91.5% and 85.8% and 89.4% and 64.1% and 86.6%
Cc1ccc(C(=O)Nc2ccc3ccccc3c2)o1 — inhibition (KCNA3 (Homo sapiens, UniProt P22001); ion current, inhibitor, whole-cell patch clamp; 10 µM): 8.3% and 24.4% and 14.1% and 21.6% and 10.9%
Clc1cncc(OC[C@@H]2CN(CCN3CCc4ccccc43)CCO2)c1 — inhibition (HTR2B; radioligand binding; concentration not given, with: [3H]LSD): 36.1%
Cc1cc(-c2ccnc3[nH]cc(F)c23)cc(F)c1[C@@]1(O)[C@H](C)CN(C(=O)CN)C[C@@H]1C — inhibition (AMPK alpha1 and alpha2; ATP probe binding, KiNativ, measured: Lys1 site; HEK293T cell lysate; 0.1 µM): -11.4%
Cc1cc2c(cc1N1C(=O)c3cccc4c(CCCO)ccc(c34)C1=O)n(C)c(=O)n2C (racemic) — inhibition (Bromodomain-containing protein 2, BD1 (BRD2, Homo sapiens, UniProt P25440); binding, BROMOscan binding; 1000 nM): 15%
CC(C)c1cccc(OS(=O)(=O)Oc2cncc(C(=O)NO)c2)c1 — inhibition (HDAC11; 10 µM): 59%
O=c1c(O)c(-c2ccc(O)c(O)c2)oc2cc(O)cc(O)c12 — inhibition (AMY2; enzyme activity; concentration not given, with: CNP-G3 substrate): 92.2% and 95.9%
O=C(C[C@@H](C(F)F)n1ccc(F)n1)N1CCC(O)(Cn2cnc3c(cnn3-c3ccc(F)cc3)c2=O)CC1 — inhibition (USP7 (Homo sapiens, UniProt Q93009, V517F); enzyme activity, inhibitor; 0.5 µM): 8.99% and 11.3%
CCCCCCCCCCCCNC(=O)CCCCC[C@H](NC(=O)OCc1ccccc1)C(=O)N[C@@H](Cc1c[nH]c2ccccc12)C(=O)NC(C)C — inhibition (SIRT1 (Homo sapiens, UniProt Q96EB6); enzyme activity, inhibitor; 100 µM): < 5%
CN1CC(Oc2cnc(C#N)cc2-c2ccn3nc(NC(=O)C4CC4)cc3c2)C1 — inhibition (ACVR1B (Homo sapiens, UniProt P36896); inhibitor, KinaseProfiler panel; 1 µM): 1%
O=C(NO)c1cccc(OS(=O)(=O)Oc2cccc(-c3ccccc3)c2)c1 — inhibition (HDAC11; 10 µM): 8%
O=C(NO)c1ccc(CN2CCCCc3ccccc32)c(F)c1 — inhibition (ADRA1A; radioligand binding, PDSP radioligand binding; 10 µM): 34.2%
Cc1nc2sccn2c(=O)c1CCN1CCC(=C(c2ccc(F)cc2)c2ccc(F)cc2)CC1 — inhibition (Diacylglycerol kinase gamma (Dgkg, Rattus norvegicus, UniProt P49620); enzyme activity, DAG kinase; HEK293T lysate overexpressing; 50 µM, with: [γ32P]-ATP; reference: DMSO control): ~63%
CCS(=O)(=O)c1nc(S(=O)(=O)c2ccccc2Cl)c(N2CCN(C)C(=O)[C@H]2C)s1 — inhibition (ADRA1A; 10 µM): 4.92%
CCc1nn(C)c2nc(-c3ccc(C(=O)O)cc3)nc(NCc3ccc(F)cc3)c12 — inhibition (PDE7A (Homo sapiens, UniProt Q13946); enzyme activity; 10 µM, with: [3H]cAMP): 23.2%
c1cncc(OC[C@@H]2CN(CCN3CCc4ccccc43)CCO2)c1 — inhibition (HTR5A; radioligand binding; concentration not given, with: [3H]LSD): 3.2%
O=c1cc(-c2ccc(O)c(O)c2)oc2cc(O)cc(O)c12 — inhibition (TLR2 (Homo sapiens, UniProt O60603); SEAP reporter gene, antagonist; HEK-Blue hTLR2; 10 µM, with: Pam3CSK4): > 90%
COc1cccc(OC[C@@H]2CN(CC(=O)N3CCc4ccccc43)CCO2)c1 — inhibition (HTR5A; radioligand binding; concentration not given, with: [3H]LSD): 14.6%
O=c1c(O)c(-c2ccc(O)cc2)oc2c(Br)c(O)c(Br)c(O)c12 — inhibition (AMY2; enzyme activity, inhibitor; 50 µM, with: CNP-G3 substrate): 98.2 ± 2.82%
CCc1oc2ccccc2c1C(=O)c1cc(Br)c(O)c(Br)c1 — inhibition (SLC22A12 (Homo sapiens, UniProt Q96S37, I156A); urate uptake; HEK293T; 0.5 µM, 10 min, 37 °C, with: 200 µM [14C]urate): 5.2% and 17.3% and 1.7% and 14.8%
Cc1ncccc1OC[C@@H]1CN(CCN2CCc3ccccc32)CCO1 — inhibition (HTR2B; radioligand binding; concentration not given, with: [3H]LSD): 28.1%
NC/C(=C\F)COc1cccc(Cn2c(=S)[nH]c(=O)c3[nH]cnc32)c1 — inhibition (rat central GABAA receptor; radioligand binding; 10 µM, with: muscimol): < 50%
COc1ccc2c(c1)C(=O)N(CCCN1CCN(c3ccccc3OC)CC1)C2 — inhibition (HTR5A; radioligand binding; concentration not given, with: [3H]LSD): 64.5%
NC(=O)c1ncn([C@@H]2O[C@H](CO[P@@](=O)(O)O[P@](=O)(O)OP(=O)(O)O)[C@@H](O)[C@H]2O)n1 — inhibition (Non-structural polyprotein pORF1, helicase domain (Hepatitis E virus genotype 1, UniProt P33424); ATPase activity, inhibitor, colorimetric; 3.5 µM, with: ATP 100 µM): 22.3%
